Measurements of several laboratories.
Each numbered part is a random draw from the data of one study; scales do not carry over between parts. Changes are numbered by the printed parent chain.

Block 1
Target: Ras GTPase-activating protein-binding protein 1, full length (G3BP1, Homo sapiens, UniProt Q13283)
Chain of UniProt Q13283 (whole entry, looked up): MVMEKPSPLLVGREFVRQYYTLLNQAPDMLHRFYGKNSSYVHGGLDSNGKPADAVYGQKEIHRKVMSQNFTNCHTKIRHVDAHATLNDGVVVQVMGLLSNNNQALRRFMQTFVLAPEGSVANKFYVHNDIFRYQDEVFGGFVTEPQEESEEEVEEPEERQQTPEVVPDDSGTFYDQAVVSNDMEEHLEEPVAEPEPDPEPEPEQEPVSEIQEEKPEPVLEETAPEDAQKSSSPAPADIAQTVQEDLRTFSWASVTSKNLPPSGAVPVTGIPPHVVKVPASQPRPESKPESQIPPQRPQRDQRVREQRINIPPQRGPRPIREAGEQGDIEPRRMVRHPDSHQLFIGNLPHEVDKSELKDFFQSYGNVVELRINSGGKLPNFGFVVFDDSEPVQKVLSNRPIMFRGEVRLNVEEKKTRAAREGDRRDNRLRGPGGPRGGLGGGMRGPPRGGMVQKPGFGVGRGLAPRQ
Method: RNA Bind-n-Seq
Form: RNA
Matrix: in vitro
Tested at: 200 nM
Setting: whole 134-nt RNA, ends assumed
With: 150 mM KCl
Baseline: input library
Direction: higher = stronger binding
Constant ends, left off below: GGGAGUUCUACAGUCCGACGAUC … UGGAAUUCUCGGGUGUCAAGG
`UCCUCAAGUCCUGUGCUACACAUCGUAUGUACCGAAUCGGGGUGGGUGGUGGAAAGUAUUAUGUUACGCCGUUCGGAUCUGCACUUCCAG` has a log2 enrichment of 0.682.
`CUGUGCUACACAUCGUAUGUACCGAAUCAAACCCCCCCAAAUUUUUUUAAACCCCCCCAAAAAAGUAUUAUGUUACGCCGUUCGGAUCUG` gave a log2 enrichment of 1.03.
For `AGUCCUGUGCUACACAUCGUAUGUACCGAAUCGGGUUUUGGGGUUUUGGGGUUUUGGGAAAGUAUUAUGUUACGCCGUUCGGAUCUGCAC`, the log2 enrichment was -0.0378.
`AAAAUAAGCCUAAGAAAGAAUUAAUUAAAGUUCUGAUUCAGAGGGGAUAUGAUUCGGAUCCUGUGAAGGCCUGGAAAGAAGCCCAGCAAA` has a log2 enrichment of -0.574.
`ACCAUGCAGGUGGGCAUCUUUGGGAAGUGGGGCAAGGGGGGGAUAGGGAAGGGGGUAACACUUUGGGAACAGGUGGUCCCAGGUCGUUUC` has a log2 enrichment of 1.19.
`UCAACAAGAGAUGUUCAAGAACUUUUGACACAAUAUACCAAGUUUGCACAGAUGGUAAAAAAGAUGGGAGGUAUCAAAGGACUUUUCAAA` gave a log2 enrichment of 0.143.
With `GCAGGAAGUAAAAACAAAUGGAAAUGCUUCGGAUAGUGGCAGGGGUGGGGGUUGCUAAGGAAAGGGUGGGAUGGGAGUGGGUAACGAGUU` the log2 enrichment was 1.06.
`CUGUGCUACACAUCGUAUGUACCGAAUCGGGGAAAAAAAGGGGAAAGGGGUUUUUUUGGGGAAAGUAUUAUGUUACGCCGUUCGGAUCUG` gave a log2 enrichment of -0.0523.
`UCCUGUGCUACACAUCGUAUGUACCGAAUCGGGGUUUGGGGUUUGGGGAAAAAAAGGGGAAAGUAUUAUGUUACGCCGUUCGGAUCUGCA` gave a log2 enrichment of 0.517.

Block 2
Target: RNA binding protein fox-1 homolog 2, RRM domain, GST-SBP tag (RBFOX2, Homo sapiens, UniProt O43251-10, residues 100-194)
Method: RNA Bind-n-Seq
Form: RNA
Matrix: in vitro
Tested at: 365 nM
Setting: natural RNA segment, single round, ends assumed
Baseline: no-protein control
Direction: higher = stronger binding
Constant ends, left off below: GGGAGUUCUACAGUCCGACGAUC … UGGAAUUCUCGGGUGCCAA
Construct (chain): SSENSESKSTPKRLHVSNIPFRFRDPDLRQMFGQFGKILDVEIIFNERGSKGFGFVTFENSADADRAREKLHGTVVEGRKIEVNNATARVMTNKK
For `GAUGAGGAUAUCCAAGGAACCCAAAACCUGCUAACAUCGGUUGAAUCUGAAACGGCAGCUUCUGAGGAAACCCUGACCAACGCCUCCCAGCGCAUCAGCAAGCUUGAGAG`, “RBNS enrichment (R)” read 0.806.
Under “RBNS enrichment (R)”, `UAUCUAAACUGCACUGAUGAACUAGAUUAAAGCCUUGGGAGAUUUAUACUAUAAAUUCAGUGAUGGCAAGAACCAACACUGUUUUUUUGUGAGAAUUGUCAGUGUAACUA` is recorded as 0.442.
`GUGAGUCUCCUGGAACAGUGGAGAUGCCAGGAGAAAGAAAGACAGGUACUAGCUGAGGUUAUUUUAAAAGCAGCAGUGUGCCUACUUUUUGGAGUGUAACCGGGGAGGGA`: “RBNS enrichment (R)” 1.06.
Under “RBNS enrichment (R)”, `CGUAUUCUGCAAUAUGGCUAAACCCUUUCCUGAUUGAGAGUUAAAGCAAUAGGAGUCAAGUUACUGGUGCCACAGAUCUGGAGGUAUGAUAGGUCAGGGGCUAGGUGUUG` is recorded as 2.7.
`UGAAGAGAAGCAGCAGAAGCCACAUUCAAGUGAGAGCACAAGUGCUCUGUGGAAAGGCAGUAUCUCUGGUGGGGACGCUGGUCCACAUCGGCCUCUGCUUGUACAUCCAU` — result for “RBNS enrichment (R)”: 0.263.
For `CACACUCCCAGGAGAAACUCCCGGUGUGUUUCUGACCCUUUCAGCCCCAUUAAAGCUCCUGAGCUCUCGCUGCCUCCUCUCUCUCUGUUCUUUGCUGCGCCAGAACCCGU`, “RBNS enrichment (R)” read 0.871.
For `GCGCAGGCGCUGUCUGGCUCAGCUGCCCCCUUGGGGUGGGCAGGGAGGACCAGACUGCUUGGGUGAUUGGGGUCCCCAGCCUAUUCCCUUUCUCUUGAGGGGAGGGUAGU`, “RBNS enrichment (R)” read 0.226.
Under “RBNS enrichment (R)”, `CUGUGUUCAGUUAUGAGACUCUUUGCAUAGUAUAGGGACUUGAAAGUUUUAUGAGACGGGUGUAAUAAUAUCUCCACCUGUGAUUUGGGGGUGGGACUCUUAUUUUGGGU` is recorded as 1.54.

Block 3
Target: CCND1, cyclin fold, Cln2 fusion (human)
Method: yeast growth competition, sequencing
Matrix: yeast
Setting: weak parent motif
Baseline: not given
Direction: higher = stronger binding
Starting sequence: BRCA2 docking peptide (human); PSIKRNLLNEFDR; partner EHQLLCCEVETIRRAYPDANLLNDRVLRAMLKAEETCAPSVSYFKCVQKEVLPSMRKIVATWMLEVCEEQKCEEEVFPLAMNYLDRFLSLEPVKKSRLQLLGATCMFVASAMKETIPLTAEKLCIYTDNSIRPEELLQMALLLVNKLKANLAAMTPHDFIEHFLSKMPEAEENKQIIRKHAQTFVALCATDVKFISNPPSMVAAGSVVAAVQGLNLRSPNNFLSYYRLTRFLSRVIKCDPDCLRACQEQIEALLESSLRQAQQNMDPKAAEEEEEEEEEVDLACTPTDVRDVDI
`PSIKRNLCNEFDR [L8C]`: “normalised enrichment score” 0.236.
`PSIQRNLLNEFDR [K4Q]`: “normalised enrichment score” 0.0718.
`PSIKRVLLNEFDR [N6V]`: “normalised enrichment score” 0.0296.
`LSIKRNLLNEFDR [P1L]` — result for “normalised enrichment score”: 0.0522.
For `VSIKRNLLNEFDR [P1V]`, “normalised enrichment score” read 0.879.
Under “normalised enrichment score”, `PSIWRNLLNEFDR [K4W]` is recorded as -0.526.
Under “normalised enrichment score”, `PSIKRNLLMEFDR [N9M]` is recorded as 0.158.
For `PSIKRNLLNEFDP [R13P]`, “normalised enrichment score” read 0.887.
`PSRKRNLLNEFDR [I3R]`: “normalised enrichment score” -0.222.
`PSEKRNLLNEFDR [I3E]`: “normalised enrichment score” 0.164.
Under “normalised enrichment score”, `PSIKRNLLNEFWR [D12W]` is recorded as 1.45.
Under “normalised enrichment score”, `PSIKQNLLNEFDR [R5Q]` is recorded as 0.222.
`PSIKRNLLNEFDW [R13W]` — result for “normalised enrichment score”: 0.993.
For `PSIKRNLLNEFPR [D12P]`, “normalised enrichment score” read 0.47.
For `PSIKRNLLNEFDY [R13Y]`, “normalised enrichment score” read 0.338.
For `PSIKRTLLNEFDR [N6T]`, “normalised enrichment score” read -0.123.
For `PSIKRNHLNEFDR [L7H]`, “normalised enrichment score” read -0.121.
For `PSIHRNLLNEFDR [K4H]`, “normalised enrichment score” read 0.33.
Under “normalised enrichment score”, `PSIKENLLNEFDR [R5E]` is recorded as 0.173.
`PSIKRILLNEFDR [N6I]`: “normalised enrichment score” -0.255.
`PSIKRNGLNEFDR [L7G]` — result for “normalised enrichment score”: -0.4.
`PSIKRNLLNEFDN [R13N]`: “normalised enrichment score” 1.17.
`PSNKRNLLNEFDR [I3N]` — result for “normalised enrichment score”: 0.0168.
For `PSIKRKLLNEFDR [N6K]`, “normalised enrichment score” read 0.172.
For `PSIKSNLLNEFDR [R5S]`, “normalised enrichment score” read -0.205.

Block 4
Target: Histone acetyltransferase KAT6A, winged helix 1, GST fusion (KAT6A, Homo sapiens, UniProt Q92794, residues 1-85)
Method: protein binding microarray
Form: double-stranded DNA, one strand shown
Matrix: in vitro
Tested at: not given
Setting: 8-mer, flanks averaged, mean of 2 arrays, mostly near background
Baseline: not given
Direction: higher = stronger binding
Target sequence (chain): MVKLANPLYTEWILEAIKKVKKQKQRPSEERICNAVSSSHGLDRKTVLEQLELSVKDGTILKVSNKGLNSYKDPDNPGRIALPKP
`CAGACGAC` has an E-score of -0.0814.
With `CAACTTAC` the E-score was -0.159.
For `AGAAAGGC`, the E-score was 0.0986.
With `GCCTAACC` the E-score was -0.0677.
For `GGGACATA`, the E-score was -0.138.
`CCAGCTGC` gave an E-score of -0.0481.
With `ATAGTCCC` the E-score was 0.11.
`CCTCTTCG` has an E-score of 0.0205.
With `CACAGTGC` the E-score was 0.0874.
The E-score of `CGTGTAAG` is reported as 0.0356.
With `GTTACTAA` the E-score was -0.0479.
The E-score of `AGAAAACT` is reported as -0.248.
`AAATGCGC` has an E-score of 0.335.
`AGAAAGAT` gave an E-score of -0.129.
With `GTCAAACA` the E-score was -0.176.
With `GAAGAACA` the E-score was -0.146.
`ACCGGCTA` gave an E-score of 0.209.
`AATACAAC` gave an E-score of 0.0725.
With `AAGAGCAG` the E-score was 0.0251.
With `ATCCAAAC` the E-score was -0.198.
